# Measurements collected from several papers.
# Lines come from different studies, so protocols differ. Several values in a cell are separate wells, animals, samples, runs or records.
# Target: TRAF2 and NCK-interacting protein kinase (TNIK, Homo sapiens, UniProt Q9UKE5)
Compound,assay,conditions,scale,measurement,result
COc1cc(Nc2nccc(-c3cnn4nc(OC)ccc34)n2)cc(C(F)(F)F)c1,"binding, competition with immobilised ligand",1 µM,,remaining binding,100%
CCn1cc(C(=O)O)c(=O)c2c(N)c(F)c(NC3CCCCC3)cc21,kinase activity,"0.1 µM, with: ATP at Km",,inhibition,2%
CCN1CCN(Cc2ccc(NC(=O)c3ccc(C)c(NC(=O)c4cncc(-c5cnn(C)c5)c4)c3)cc2C(F)(F)F)CC1,"binding, competition with immobilised ligand",1 µM,,remaining binding,51%
COc1c(Cl)cccc1Nc1c(-c2ccncc2C#C[C@@]2(C)CCCN2C(=O)/C=C/CN(C)C)[nH]c2c1C(=O)NCC2,"binding, competition with immobilised ligand",3 µM,,remaining binding,25%
O=C(Cc1ccc(OCc2ccccc2)cc1)NC1(C(=O)O)CCN(C(=O)c2ccc(-c3cccc(Cl)c3)cc2)CC1,"enzyme activity, inhibitor",10 µM,,activity vs control,155%
NC(=O)C[C@H]1CCc2sc3ncnc(O[C@H]4CC[C@H](N5CCOCC5)CC4)c3c21,"enzyme activity, inhibitor",10 µM,,inhibition,26%
CN1CC[C@@H](COc2cnc(C#N)cc2-c2ccn3nc(NC(=O)C4CC4)cc3c2)C1,"enzyme activity, inhibitor",1 µM,,inhibition,45%
CC(C)=CC1OC(C)(C)C2C=C3C(=O)C(Cl)=CC(O)C3C3C(O)C4OC4C(=O)C132 (stereo not shown),"cell-free assay, competition with immobilised ligand",10 µM,,remaining binding,88%
C=CC(=O)Nc1cccc(-c2cnc3[nH]cc(C(=O)NC(C)(C)C)c3n2)c1,kinase activity,0.1 µM,,inhibition,37% and 33%
Cc1cccc(O[C@H]2CCC[C@@H](C(C)CNCc3ccncc3)C2)c1 (relative stereo),"enzyme activity, inhibitor",10 µM,,inhibition,-1%
Nc1ncc2c(n1)-c1c([nH]c3ccc(C4=CCOCC4)cc13)CCC2,"binding, competition with immobilised ligand",1 µM,,remaining binding,59%
CNC(=O)C1CCN(c2cc(C)c(F)cc2NC(=O)c2ccc(-c3cc(O)ccc3C)c(C)c2)CC1,"binding, competition with immobilised ligand",1 µM,,remaining binding,99%
C=CC(=O)N1CCc2ccc(-n3c(=O)ccc4cnc5ccc(-c6cnn(C)c6)cc5c43)cc21,KINOMEscan,1 µM,baseline: DMSO control,remaining binding,83%

# A few entries again:
Compound,assay,conditions,scale,measurement,result
Nc1ncc2c(n1)-c1c([nH]c3ccc(C4=CCOCC4)cc13)CCC2,"binding, competition with immobilised ligand",1 µM,,remaining binding,59%
CNC(=O)C1CCN(c2cc(C)c(F)cc2NC(=O)c2ccc(-c3cc(O)ccc3C)c(C)c2)CC1,"binding, competition with immobilised ligand",1 µM,,remaining binding,99%
